Published values pooled from the literature.
Parts stem from different laboratories: compare values within a part only.
Sequence of UniProt P41143 (whole entry, looked up): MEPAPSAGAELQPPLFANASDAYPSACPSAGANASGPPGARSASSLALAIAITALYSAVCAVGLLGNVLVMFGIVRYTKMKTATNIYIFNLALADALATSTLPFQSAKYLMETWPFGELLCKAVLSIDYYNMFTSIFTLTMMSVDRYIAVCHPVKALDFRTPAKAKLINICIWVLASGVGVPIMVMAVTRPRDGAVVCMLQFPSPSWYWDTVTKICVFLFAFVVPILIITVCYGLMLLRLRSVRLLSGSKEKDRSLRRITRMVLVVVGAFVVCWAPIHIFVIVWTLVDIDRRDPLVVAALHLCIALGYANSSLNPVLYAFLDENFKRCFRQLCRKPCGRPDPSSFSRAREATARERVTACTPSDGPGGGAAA
Sequence of UniProt P11229 (whole entry, looked up): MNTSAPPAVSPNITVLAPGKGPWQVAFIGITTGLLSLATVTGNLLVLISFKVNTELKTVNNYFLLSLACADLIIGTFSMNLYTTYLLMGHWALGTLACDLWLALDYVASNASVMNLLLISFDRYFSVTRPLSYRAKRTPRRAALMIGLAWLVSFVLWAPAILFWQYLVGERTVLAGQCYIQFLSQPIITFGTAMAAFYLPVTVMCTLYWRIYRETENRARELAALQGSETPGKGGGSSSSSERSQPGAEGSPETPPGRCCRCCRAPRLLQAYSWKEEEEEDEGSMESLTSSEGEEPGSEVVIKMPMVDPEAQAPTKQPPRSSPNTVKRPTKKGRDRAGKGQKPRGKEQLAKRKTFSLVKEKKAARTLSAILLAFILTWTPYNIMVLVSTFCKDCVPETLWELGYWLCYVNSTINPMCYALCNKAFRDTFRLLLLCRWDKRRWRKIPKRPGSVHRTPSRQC
Sequence of UniProt P21918 (whole entry, looked up): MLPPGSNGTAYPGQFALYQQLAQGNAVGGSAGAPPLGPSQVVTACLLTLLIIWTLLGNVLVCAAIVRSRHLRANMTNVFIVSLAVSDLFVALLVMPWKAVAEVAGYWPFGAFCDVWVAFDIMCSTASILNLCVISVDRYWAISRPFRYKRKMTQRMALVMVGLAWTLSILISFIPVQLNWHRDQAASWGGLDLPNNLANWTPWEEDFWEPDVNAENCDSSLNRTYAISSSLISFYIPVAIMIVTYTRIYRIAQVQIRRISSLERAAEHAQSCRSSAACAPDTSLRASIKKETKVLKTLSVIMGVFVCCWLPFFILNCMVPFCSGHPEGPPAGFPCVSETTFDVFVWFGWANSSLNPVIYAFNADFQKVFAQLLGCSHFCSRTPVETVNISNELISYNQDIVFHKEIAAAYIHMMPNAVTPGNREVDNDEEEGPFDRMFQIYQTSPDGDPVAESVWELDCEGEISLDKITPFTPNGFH
Sequence of UniProt P35372 (whole entry, looked up): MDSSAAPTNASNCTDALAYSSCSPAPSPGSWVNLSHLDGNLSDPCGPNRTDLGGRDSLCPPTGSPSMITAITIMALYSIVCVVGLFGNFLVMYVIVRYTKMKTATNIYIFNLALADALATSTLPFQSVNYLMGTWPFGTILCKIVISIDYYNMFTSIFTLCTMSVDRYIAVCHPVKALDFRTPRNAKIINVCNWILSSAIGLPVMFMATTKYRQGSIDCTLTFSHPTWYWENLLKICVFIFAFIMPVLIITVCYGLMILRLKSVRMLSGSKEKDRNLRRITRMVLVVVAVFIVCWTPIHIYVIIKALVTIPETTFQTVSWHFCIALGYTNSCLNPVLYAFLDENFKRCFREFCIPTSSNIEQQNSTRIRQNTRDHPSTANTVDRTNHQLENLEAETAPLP
Sequence of UniProt P20309 (whole entry, looked up): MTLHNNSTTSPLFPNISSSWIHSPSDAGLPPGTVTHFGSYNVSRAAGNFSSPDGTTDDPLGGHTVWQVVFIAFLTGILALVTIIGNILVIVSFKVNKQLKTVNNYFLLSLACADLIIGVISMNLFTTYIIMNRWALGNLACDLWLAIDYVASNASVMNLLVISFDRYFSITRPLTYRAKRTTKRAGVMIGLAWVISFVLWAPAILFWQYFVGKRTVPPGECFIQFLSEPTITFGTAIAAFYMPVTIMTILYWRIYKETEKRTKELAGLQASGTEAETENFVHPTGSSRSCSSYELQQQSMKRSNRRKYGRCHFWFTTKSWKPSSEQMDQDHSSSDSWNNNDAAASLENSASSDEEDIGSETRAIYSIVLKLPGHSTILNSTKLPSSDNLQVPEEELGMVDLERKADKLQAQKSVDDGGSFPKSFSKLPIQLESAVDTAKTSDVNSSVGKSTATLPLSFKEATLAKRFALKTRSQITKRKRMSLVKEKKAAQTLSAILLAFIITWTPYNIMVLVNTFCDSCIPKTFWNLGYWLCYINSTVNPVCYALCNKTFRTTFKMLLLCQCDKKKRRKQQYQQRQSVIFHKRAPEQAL
Sequence of UniProt P41145 (whole entry, looked up): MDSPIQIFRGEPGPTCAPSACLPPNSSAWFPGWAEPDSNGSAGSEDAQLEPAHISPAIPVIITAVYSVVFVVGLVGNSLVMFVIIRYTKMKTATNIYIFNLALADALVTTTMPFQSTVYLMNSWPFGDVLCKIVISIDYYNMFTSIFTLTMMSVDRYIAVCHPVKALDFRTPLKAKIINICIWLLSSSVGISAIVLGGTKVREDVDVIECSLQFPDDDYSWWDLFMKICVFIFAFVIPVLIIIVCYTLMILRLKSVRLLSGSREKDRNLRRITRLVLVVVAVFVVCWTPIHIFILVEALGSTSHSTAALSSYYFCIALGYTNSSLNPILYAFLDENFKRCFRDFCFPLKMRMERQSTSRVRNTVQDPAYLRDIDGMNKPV
Sequence of UniProt P10398 (whole entry, looked up): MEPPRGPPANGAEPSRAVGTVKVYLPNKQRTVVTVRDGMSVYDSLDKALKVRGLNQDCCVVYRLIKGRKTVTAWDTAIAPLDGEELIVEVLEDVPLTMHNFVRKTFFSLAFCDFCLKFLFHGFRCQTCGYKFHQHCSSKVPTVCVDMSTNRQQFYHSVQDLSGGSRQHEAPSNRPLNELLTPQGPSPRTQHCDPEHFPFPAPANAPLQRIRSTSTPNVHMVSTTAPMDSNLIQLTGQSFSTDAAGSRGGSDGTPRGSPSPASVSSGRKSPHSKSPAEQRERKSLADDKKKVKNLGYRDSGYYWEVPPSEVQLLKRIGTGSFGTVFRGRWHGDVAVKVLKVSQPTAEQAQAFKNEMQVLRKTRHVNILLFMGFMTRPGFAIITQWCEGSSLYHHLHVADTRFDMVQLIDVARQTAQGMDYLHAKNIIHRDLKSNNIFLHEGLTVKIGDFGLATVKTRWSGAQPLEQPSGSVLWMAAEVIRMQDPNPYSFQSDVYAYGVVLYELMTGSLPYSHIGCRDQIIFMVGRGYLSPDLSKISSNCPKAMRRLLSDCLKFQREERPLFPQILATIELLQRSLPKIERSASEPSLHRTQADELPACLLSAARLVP

Study 1
Target: Eukaryotic initiation factor 4A-III (Homo sapiens, UniProt P38919)
Sequence of UniProt P38919 (whole entry, looked up): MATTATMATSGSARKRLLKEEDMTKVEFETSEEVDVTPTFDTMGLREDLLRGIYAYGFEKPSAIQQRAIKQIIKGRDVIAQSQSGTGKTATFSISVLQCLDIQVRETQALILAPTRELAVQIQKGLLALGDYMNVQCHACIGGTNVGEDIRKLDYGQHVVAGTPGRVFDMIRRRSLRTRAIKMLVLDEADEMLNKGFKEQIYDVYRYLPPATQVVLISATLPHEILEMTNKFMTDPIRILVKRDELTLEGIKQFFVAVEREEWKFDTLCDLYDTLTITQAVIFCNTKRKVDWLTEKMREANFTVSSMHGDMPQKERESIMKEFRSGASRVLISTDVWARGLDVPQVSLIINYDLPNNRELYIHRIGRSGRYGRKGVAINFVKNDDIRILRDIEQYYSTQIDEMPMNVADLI
Read-out: RNA clamping
Technique: fluorescence polarization
Concentration: concentration not given
Added: FAM-labelled poly r(AG)8 RNA
`COc1ccc([C@@]23Oc4cc(OC)cc(OC)c4[C@@]24NC(C)=NC4=C(C=O)[C@H]3c2ccccc2)cc1`: “fluorescence polarization change” 20.8 mP.
Under “fluorescence polarization change”, `COC(=O)[C@H]1C(=O)[C@@]2(O)c3c(OC)cc(OC)cc3O[C@@]2(c2ccc(OC)cc2)[C@@H]1c1ccccc1` is recorded as 25.6 mP.
Under “fluorescence polarization change”, `COCc1nc2c(c(=O)[nH]1)[C@@H](c1ccccc1)[C@]1(c3ccc(OC)cc3)Oc3cc(OC)cc(OC)c3[C@]21O` is recorded as 35.1 mP.
`COc1cc(OC)c2c(c1)O[C@@]1(c3ccc(Br)cc3)[C@H](c3ccccc3)C[C@@H](O)[C@@]21O`: “fluorescence polarization change” 23.8 mP.
`COc1ccc([C@@]23Oc4cc(OC)cc(OC)c4[C@]2(O)c2nc(-c4ccc(Cl)cc4)[nH]c(=O)c2[C@H]3c2ccccc2)cc1`: “fluorescence polarization change” 8.5 mP.
For `CCOC(=O)COc1nc(-c2ccccc2)nc2c1[C@@H](c1ccccc1)[C@]1(c3ccc(OC)cc3)Oc3cc(OC)cc(OC)c3[C@]21O`, “fluorescence polarization change” read 8.2 mP.
Under “fluorescence polarization change”, `COC(=O)[C@H]1[C@H](c2ccccc2)[C@]2(c3ccc(OC)cc3)Oc3cc(OC)cc(OC)c3[C@@]23OC(c2ccccc2)=N[C@@]13O` is recorded as -1 mP.
Under “fluorescence polarization change”, `COc1ccc([C@@]23Oc4cc(OC)cc(OC)c4[C@]2(O)c2nc(-c4ccc(Cl)nc4)[nH]c(=O)c2[C@H]3c2ccccc2)cc1` is recorded as 24.4 mP.
For `COC(=O)[C@@H]1[C@@H](c2ccccc2)[C@]2(c3ccc(OC)cc3)Oc3cc(OC)cc(OC)c3[C@@]23OC(C)=N[C@@]13O`, “fluorescence polarization change” read 26.1 mP.
Under “fluorescence polarization change”, `COc1ccc([C@@]23Oc4cc(OC)cc(OC)c4[C@]2(O)c2nc4n(c(=O)c2[C@@H]3c2ccccc2)CCC4)cc1` is recorded as 7.7 mP.
For `COC(=O)[C@@H]1[C@@H](c2ccccc2)[C@]2(c3ccc(OC)cc3)Oc3cc(OC)cc(OC)c3[C@@]23OC(c2ccc(F)cc2)=N[C@@]13O`, “fluorescence polarization change” read 21.5 mP.
Under “fluorescence polarization change”, `COC(=O)[C@H]1[C@@H](O)[C@@]2(O)c3c(OC)cc(OC)cc3O[C@@]2(c2ccc(Br)cc2)[C@@H]1c1ccccc1` is recorded as 29.4 mP.
For `COc1cc(F)cc2c1[C@]1(O)[C@H](O)[C@H](/C(N)=N/O)[C@@H](c3ccccc3)[C@]1(c1ccc(Br)cc1)O2`, “fluorescence polarization change” read 37.7 mP.

Study 2
SMILES: CCOc1cc(N2C3COCC2CN(C(=O)[C@H]2C[C@H](O)CN2c2ccc(Cl)cc2)C3)ccc1Cl
Read-out: cell-free assay
Concentration: 10 µM
OPRM1 (Homo sapiens, UniProt P35372) — inhibition: 5.82%.
The inhibition was 53.6% (OPRK1 (Homo sapiens, UniProt P41145)).
It gave 8.61% for inhibition (CHRM3 (Homo sapiens, UniProt P20309)).
It gave 2.54% for inhibition (DRD5 (Homo sapiens, UniProt P21918)).
It gave -5.67% for inhibition (CHRM1 (Homo sapiens, UniProt P11229)).
OPRD1 (Homo sapiens, UniProt P41143) — inhibition: 10.3%.

Study 3
Target: Calcium/calmodulin-dependent protein kinase type II subunit alpha (CAMK2A, Homo sapiens, UniProt Q9UQM7)
Sequence of UniProt Q9UQM7 (whole entry, looked up): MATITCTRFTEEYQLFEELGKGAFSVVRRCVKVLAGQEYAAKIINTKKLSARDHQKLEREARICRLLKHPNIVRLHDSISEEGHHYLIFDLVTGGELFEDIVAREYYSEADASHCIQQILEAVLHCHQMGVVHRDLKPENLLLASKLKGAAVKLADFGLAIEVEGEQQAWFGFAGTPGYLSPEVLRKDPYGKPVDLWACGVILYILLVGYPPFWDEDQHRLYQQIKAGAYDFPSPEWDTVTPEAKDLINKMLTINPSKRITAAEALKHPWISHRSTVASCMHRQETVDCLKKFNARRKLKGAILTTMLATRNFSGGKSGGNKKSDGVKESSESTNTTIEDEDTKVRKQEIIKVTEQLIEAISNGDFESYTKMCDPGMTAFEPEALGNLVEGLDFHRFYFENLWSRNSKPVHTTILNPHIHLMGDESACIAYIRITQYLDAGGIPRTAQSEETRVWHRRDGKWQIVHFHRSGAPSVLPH
Read-out: enzyme activity
Mode: inhibitor
Concentration: 10 µM
The inhibition of `NCC(CC(=O)O)c1ccc(Cl)cc1` (stereo not drawn) is reported as -4%.
For `CCC1=C[C@@H]2[C@H](C1)C[C@]2(CN)CC(=O)O`, the inhibition was -6%.
With `CC1=C2C(=O)[C@H]3[C@@H](CC=C4C[C@@H](O)CC[C@@]43C)[C@@H]2CC[C@]12O[C@@H]1C[C@H](C)CN[C@H]1[C@H]2C` the inhibition was -23%.
With `N#Cc1nn(-c2c(Cl)cc(C(F)(F)F)cc2Cl)c(N)c1[S+]([O-])C(F)(F)F` (stereo not drawn) the inhibition was -9%.
With `C=CC[C@]1(O)CC[C@H]2[C@@H]3CCC4=CCCC[C@@H]4[C@H]3CC[C@@]21C` the inhibition was -8%.
With `CCCCC(CC)COC(=O)c1ccccc1C(=O)OCC(CC)CCCC` (stereo not drawn) the inhibition was 17%.
`COc1cc2c(cc1O)[C@@H]1Cc3ccc(OC)c(OC)c3CN1CC2` has an inhibition of -16%.
`CC(C)N(CCNC(=O)CN1CCCC1=O)C(C)C` gave an inhibition of -2%.
`C=C(C)[C@@H]1CC=C(C=O)CC1` has an inhibition of -33%.
`CCCCCCCCCCCCCC(=O)OC[C@H](COP(=O)(O)OCCN)OC(=O)CCCCCCCCCCCCC` gave an inhibition of -11%.

Single results of other studies
With `CC(C)(C)c1nc(-c2cccc(NS(=O)(=O)c3c(F)cccc3F)c2F)c(-c2ccnc(N)n2)s1` the EC50 was 122 nM (Serine/threonine-protein kinase A-Raf (ARAF, Homo sapiens, UniProt P10398); kinase–CDC37 interaction, inhibitor; human cells; kinome plate 1@A11).

A few entries again (study 1):
Under “fluorescence polarization change”, `COC(=O)[C@H]1[C@H](c2ccccc2)[C@]2(c3ccc(OC)cc3)Oc3cc(OC)cc(OC)c3[C@@]23OC(c2ccccc2)=N[C@@]13O` is recorded as -1 mP.
Under “fluorescence polarization change”, `COc1ccc([C@@]23Oc4cc(OC)cc(OC)c4[C@]2(O)c2nc(-c4ccc(Cl)nc4)[nH]c(=O)c2[C@H]3c2ccccc2)cc1` is recorded as 24.4 mP.
For `COC(=O)[C@@H]1[C@@H](c2ccccc2)[C@]2(c3ccc(OC)cc3)Oc3cc(OC)cc(OC)c3[C@@]23OC(C)=N[C@@]13O`, “fluorescence polarization change” read 26.1 mP.
Under “fluorescence polarization change”, `COc1ccc([C@@]23Oc4cc(OC)cc(OC)c4[C@]2(O)c2nc4n(c(=O)c2[C@@H]3c2ccccc2)CCC4)cc1` is recorded as 7.7 mP.
For `COC(=O)[C@@H]1[C@@H](c2ccccc2)[C@]2(c3ccc(OC)cc3)Oc3cc(OC)cc(OC)c3[C@@]23OC(c2ccc(F)cc2)=N[C@@]13O`, “fluorescence polarization change” read 21.5 mP.
